Measured values of several laboratories.
Every numbered part comes from another study and shows a few of its results, in no order. Positions count from the first letter of the parent shown.

Study 1
Target: CCNB1, cyclin fold, Cln2 fusion (human)
Method: yeast growth competition, sequencing
Medium: yeast
Notes: strong parent motif
Baseline: not given
Direction: higher = stronger binding
Parent: viral docking peptide; KGVKRKLFAEDSS
Change | normalised enrichment score
S12Q | 1.85
A9H | 1.71
S12T | 2.69
L7M | 0.493
G2E | 2.99
F8R | 0.378
G2V | 1.54
K4Y | 1.16

Study 2
Target: HLA class I histocompatibility antigen, A alpha chain, allele A*80:01 (Homo sapiens, UniProt P04439)
Read-out: peptide-MHC binding
Molecule type: peptide
Tested at: concentration not given
Sequence | binding
NTDAFSREY | inactive
RDRFKRTSF | inactive
RRELSKEKL | inactive
SQLPPACPV | inactive
YTDLTYQSF | inactive
MMWIPGWFG | inactive
AMPKTIYEL | inactive
AARHKHQVM | inactive

Study 3
Target: UBE2A UBC core domain (UniProt P49459)
UniProt P49459, sequence (whole entry, looked up): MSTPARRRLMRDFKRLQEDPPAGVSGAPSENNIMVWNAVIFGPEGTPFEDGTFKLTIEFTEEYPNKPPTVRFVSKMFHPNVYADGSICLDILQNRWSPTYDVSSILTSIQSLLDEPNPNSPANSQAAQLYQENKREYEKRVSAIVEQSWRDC
Method: yeast two-hybrid
Medium: yeast
Notes: mostly zero background
Baseline: not given
Direction: higher = stronger interaction
B1: RFWD3 RING domain (UniProt Q6PCD5); chain ASMDEEEGDTCTICLEQWTNAGDHRLSALRCGHLFGYRCISTWLKGQVRKCPQCNKKARHSDIVV
B2: MAP3K1 RING domain (UniProt Q13233); chain NSIKDEEEQMCPICLLGMLDEESLTVCEDGCRNKLHHHCMSIWAEECRRNREPLICPLCRSKWRSHDFYS
B3: MDM4 RING domain (UniProt O15151); chain MEDCQNLLKPCSLCEKRPRDGNIIHGRTGHLVTCFHCARRLKKAGASCPICKKEIQLVIKVF
B4: RNF133 RING domain (UniProt Q8WVZ7); chain DEEINPNGDSCVICFERYKPNDIVRILTCKHFFHKNCIDPWILPHGTCPICKCDILKVLGIQ
Sequence | lacZ reporter activity
B1 (RFWD3 RING domain) | 0
B2 (MAP3K1 RING domain) | 0
PEDRESLKSACVVCLSSFKSCVFLECGHVCSCTECYRALPEPKKCPICRQAITRVIPLY (MUL1 RING domain (UniProt Q969V5)) | 0
NLSELTPYILCSICKGYLIDATTITECLHTFCKSCIVRHFYYSNRCPKCNIVVHQTQPLY (PCGF6 RING domain (UniProt Q9BYE7)) | 0
GSDDEEIPFKCFICRQSFQNPVVTKCRHYFCESCALQHFRTTPRCYVCDQQTNGVFNPA (RNF113A RING domain (UniProt O15541)) | 0
B3 (MDM4 RING domain) | 0
B4 (RNF133 RING domain) | 9610
GSRLQEINDVCAICYHEFTTSARITPCNHYFHALCLRKWLYIQDTCPMCHQKVYIEDDIK (RNF139 RING domain (UniProt Q8WU17)) | 0

Mixed results
Structure (SMILES) | cell line | tested at | time | measurement | value
C=C1C[C@@H]2[C@H](CC[C@]3(C)C(=O)CC[C@@H]23)[C@@]2(C)C=CC(=O)C=C12 | HaCaT | 100 µM | 36 h | viability | 20.2%
